Experimental data from different studies.
Each line is one published result; not all experiments were run side by side. Values joined by “and” are separate records of one study, mostly repeats; a detail may differ.

COc1cc(OC)cc(C2=C3C(C)=C(I)C(/C=C/c4cccs4)=[N+]3[B-](F)(F)n3c(/C=C/c4cccs4)c(I)c(C)c32)c1 — Stokes shift (DMSO): 364 cm⁻¹
CC[N+]1=C(C=CC=CC=C2N(CCCCCC(=O)O)c3ccc4c(S(=O)(=O)[O-])cc(S(=O)(=O)[O-])cc4c3C2(C)C)C(C)(C)c2c1ccc1c(S(=O)(=O)[O-])cc(S(=O)(=O)[O-])cc21.[K+].[K+].[K+] — Stokes shift (100% serum; pH 7.4): 13 nm
Nc1ncnc2c1nc(-n1nnc3c1CCC1C(CO)C1CC3)n2C1OC(CO)C(O)C1O (mixture of isomers) — Stokes shift (methanol): 83 nm
CCn1cc(/C=C/c2sc3ccccc3[n+]2CC)c2ccccc21 — Stokes shift (PBS): 74 nm and > 70 nm
NCCC(=O)N1Cc2ccccc2-c2c(nnn2-c2nc(N)c3ncn(C4OC(CO)C(O)C4O)c3n2)-c2ccccc21 (mixture of isomers) — Stokes shift (methanol): 133 nm
COC(=O)c1ccccc1-c1c2ccc(=O)cc-2oc2c1ccc1cccc(OC)c12 — Stokes shift (phosphate buffer 10% DMSO; pH 7.4): 50 nm
CCn1cc(/C=C/c2ccc3ccccc3[n+]2CC)c2ccccc21 — Stokes shift (DMSO): 77 nm
COCCOCCOCCOc1ccc(/C=C/c2c(I)c(C)c3n2[B-](F)(F)[N+]2=C(C)C(I)=C(C)C2=C3c2cc(OC)cc(OC)c2)cc1 — Stokes shift (THF): 383 cm⁻¹
Nc1ncnc2c1nc(-n1nnc3c1CCC1C(CO)C1CC3)n2C1CC(O)C(CO)O1 (mixture of isomers) — Stokes shift (methanol): 107 nm
COC(=O)c1ccccc1-c1c2ccc(=[N+](C)C)cc-2oc2c1ccc1cccc(N)c12 — Stokes shift (phosphate buffer 10% DMSO; pH 7.4): 172 nm
COc1cc(OC)cc(C2=C3C(C)=C(I)C(/C=C/c4c[nH]c5ccc([N+](=O)[O-])cc45)=[N+]3[B-](F)(F)n3c(/C=C/c4c[nH]c5ccc([N+](=O)[O-])cc45)c(I)c(C)c32)c1 — Stokes shift (THF): 500 cm⁻¹
COC(=O)c1ccccc1-c1c2ccc(=[N+](C)C)cc-2oc2c1ccc1cccc(O)c12 — Stokes shift (aqueous HCl 10% DMSO; pH 1.9): 47 nm
COc1cc(OC)cc(C2=C3C(C)=C(I)C(C)=[N+]3[B-](F)(F)n3c(/C=C/c4c[nH]c5ccccc45)c(I)c(C)c32)c1 — Stokes shift (dichloromethane): 1050 cm⁻¹

Repeated from above:
Nc1ncnc2c1nc(-n1nnc3c1CCC1C(CO)C1CC3)n2C1CC(O)C(CO)O1 (mixture of isomers) — Stokes shift (methanol): 107 nm
